Assay results gathered from unrelated publications.
A part holds a random share of what one study measured.

Block 1 — technique: RNA Bind-n-Seq; form: RNA; sample: in vitro; tested at: 365 nM; relative to: no-protein control; reading: higher = stronger binding
Target: RNA binding protein fox-1 homolog 2, RRM domain, GST-SBP tag (RBFOX2, Homo sapiens, UniProt O43251-10, residues 100-194)
Setting: natural RNA segment, single round, ends assumed
All sequences stand within: GGGAGUUCUACAGUCCGACGAUC … UGGAAUUCUCGGGUGCCAA
Construct (chain): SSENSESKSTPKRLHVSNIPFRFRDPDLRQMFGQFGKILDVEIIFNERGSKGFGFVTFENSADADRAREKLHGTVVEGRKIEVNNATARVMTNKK
Strand	RBNS enrichment (R)
CUGUCCAGUAUGGAGGAACACUCACCUGGACUUGCAGUUGGACUUUGAACAUCAAGAUCAAAUUAGUGGAUGCUGUCGUCUCUUAAAGCUGGUUUUAUUUGUCUCUGGUC	0.429
UGCUGUGGGACUGUUUUUUCCUCUGACAUGCCAAAUGUAACUUCUGUAAGUGGUGGAGAGUGCUGUCCUGUGUAGGCAGCUUCUGACUGCAGUUGAAAUGUAGUCCCCUA	0.257
CUCAACAGUCUGUGUGAUCCCAAAGCCAUUCCACUGUAAAUGCCUGGCAGUAAAGAUGGCCCCAGACUGGGUUCCUGCCUGCAGUGUGUGUGGCGGUAGCCCAUGUGCCU	0.564
AAACACAAUAUAUAUCAAUAUCUAUAUAUCUAUAUAUCGAUCUAUAUAAACUACUAGCUUUUCCUUUGGUGUUUGCGCCUUUUUCCUAUCUCAGUUUGAUGGGUGGCCAU	0.529
GGGGACCUAGAAGCAGCCCAGUGUGUCCCCACCCCUUUUCCGCACUGUCUUGCUAAUGUUCUGAUCACUGUGCGCCCCCUCCCUCUUCAGAAGGACCCUGGGCCUCUUGA	0.841
UAUGUAAAUAAUGUGUAAAGCCAGUUUUUAUGAUUAAGGAAUCAAAUUUAUUGAAUUUUAUUAUUGAAAGUUGAAACUUAACAUGUAUGAACAAAAACCAAUAAAAGAAU	0.409
GCAUUGUAAAAAACAGAUACUGUGGUAGAUUUCUAGAAAUUCAUUCACAUUUAAGACUUCUAAAAUGGAAUAAUAGCCUUUUGUUUUUCAUGAGCAUAUUCGCACCCCUA	0.465
UCUCUCCCCUCACUGGUAUGGGUUCAGAGCAAUGCCUAGGGCCCCUCUCUGCUCCCCUGCCUAGUGGGGUGGUAGUGGCUACCUCUCAGCCCCAAUAGUCCCUGCUCCUC	0.298
UGAAAGUGUUACUCAGAAUUGUCAUAGUUUUUUUCCCCCCAUCUUUGUGCUAAAACAUGGAAAAUUGUCACUGUGUUGAUGAGGUUUCCCCCAUUCUGCUGCCUUUGGGA	0.586
GUUCUAAAACGGGGAGUGGUCUGAAUGAACACAGCUGACCCCUUUCCCGCGCACUGAAAGGGCAGAGUAGGCCGAAGGGUCCAAGGGCCAGACUGCCUCACCCUCUGCCC	0.177
UCAUCUGCCAUUACUGUUAUUUGCUGAUUUUAUUUUAUUUUGAUGGUAAUAUUCUAUCCUUAUGACACUAUUGCAACCAAAUUGGCUUUACCAUCUUGGCUUUAGUAGGU	0.564
UUCCUGUUUGCCGUGUAAAUGUUAGAAAGGAAUUAAAGUUAUUACUCGGAAUAAAGGAUGACUUUGGCGGAUGUCGCCCCUGCAAGGAGGUGGCUGAAAGUGGUGUCCAG	0.434

Block 2 — technique: aptamer microarray, sandwich; form: DNA with 2'F-ANA; sample: in vitro; tested at: 200 nM; together with: Cy3 exosite-II aptamer, 400 nM; reading: higher = stronger binding; strand: GGTTGGTGTGGTTGG
Target: Prothrombin, mature alpha-thrombin (F2, Homo sapiens, UniProt P00734)
Setting: whole 15-mer aptamer, many near background
Modification	mean fluorescence intensity
2'F-ANA at 1 2 3 6 9 11 12 13	236 a.u.
2'F-ANA at 1 4 6 7 8 9 10 11 12 15	72.5 a.u.
2'F-ANA at 1 4 6 8 9 10 12 15	59.9 a.u.
2'F-ANA at 1 3 4 5 6 7 8 9 10 12 13 15	50 a.u.
2'F-ANA at 2 4 5 11 14 15	45.2 a.u.
2'F-ANA at 1 3 5 7 9 11 12 15	98.3 a.u.
2'F-ANA at 1 6 7 10 11 12 14 15	52.7 a.u.
2'F-ANA at 6 7 8 10 12 14 15	114 a.u.
2'F-ANA at 2 4 6 7 9 14	81.9 a.u.
2'F-ANA at 2 3 4 6 7 10	269 a.u.
2'F-ANA at 1 4 5 6 8 9 10 11 14 15	80.1 a.u.
2'F-ANA at 1 2 4 10 13 14	45.8 a.u.
2'F-ANA at 4 5 6 7 11 12	98.9 a.u.
2'F-ANA at 1 2 5 9 10	46.5 a.u.
2'F-ANA at 5 6 7 9 10 12	52.4 a.u.
2'F-ANA at 5 8 9 10 14	43.5 a.u.
2'F-ANA at 1 2 5 9 10 12 13 15	58.8 a.u.
2'F-ANA at 1 2 4 6 7 9 11 12 15	155 a.u.
2'F-ANA at 1 2 4 6 7 10 12 13 14	72.8 a.u.

Block 3 — technique: universal PBM; form: double-stranded DNA, one strand shown; sample: in vitro; tested at: 600 nM; reading: higher = stronger binding
Target: Sal-like protein 4, full length isoform A (SALL4, Homo sapiens, UniProt Q9UJQ4, residues 1-1053)
Chain of UniProt Q9UJQ4 (whole entry, looked up): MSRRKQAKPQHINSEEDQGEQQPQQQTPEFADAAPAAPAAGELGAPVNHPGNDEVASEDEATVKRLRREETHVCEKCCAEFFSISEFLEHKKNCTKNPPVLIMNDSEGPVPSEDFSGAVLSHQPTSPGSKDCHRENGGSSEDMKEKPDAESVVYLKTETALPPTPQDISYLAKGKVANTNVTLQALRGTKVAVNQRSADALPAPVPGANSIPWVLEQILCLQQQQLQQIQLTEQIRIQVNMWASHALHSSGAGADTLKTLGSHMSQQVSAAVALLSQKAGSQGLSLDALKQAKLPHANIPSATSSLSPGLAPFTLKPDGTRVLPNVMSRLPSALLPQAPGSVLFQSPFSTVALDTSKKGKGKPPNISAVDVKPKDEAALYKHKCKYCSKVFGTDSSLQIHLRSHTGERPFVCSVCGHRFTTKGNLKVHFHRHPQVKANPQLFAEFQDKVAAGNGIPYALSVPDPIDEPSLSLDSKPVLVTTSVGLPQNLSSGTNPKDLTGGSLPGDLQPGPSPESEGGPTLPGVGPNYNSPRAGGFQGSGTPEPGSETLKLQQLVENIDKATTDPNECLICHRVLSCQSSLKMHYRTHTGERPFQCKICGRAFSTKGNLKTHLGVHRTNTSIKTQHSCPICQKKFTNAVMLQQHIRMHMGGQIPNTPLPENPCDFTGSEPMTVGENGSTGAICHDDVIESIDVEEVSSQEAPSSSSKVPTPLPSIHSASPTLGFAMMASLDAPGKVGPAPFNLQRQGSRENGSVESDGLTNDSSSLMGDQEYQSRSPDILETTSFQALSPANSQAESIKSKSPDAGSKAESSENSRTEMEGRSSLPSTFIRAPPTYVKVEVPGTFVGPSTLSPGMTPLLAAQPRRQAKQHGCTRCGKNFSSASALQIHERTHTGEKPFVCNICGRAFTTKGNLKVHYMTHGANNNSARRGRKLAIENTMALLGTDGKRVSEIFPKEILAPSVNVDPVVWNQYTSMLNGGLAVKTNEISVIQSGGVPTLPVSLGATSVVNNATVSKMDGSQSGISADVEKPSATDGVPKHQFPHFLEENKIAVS
Setting: 8-mer, flanks averaged, mean of replicates
Strand	E-score
CAAGTCGA	0.0645
CTTCGAAG	-0.0594
CAACGGGA	-0.134
CATTCGCC	-0.215
AAATGGAC	0.167
GGCACCCA	-0.224
GAACTATA	0.265
CAGATTTA	0.153
ACAGGCGC	-0.253
TGACCTAA	0.102
AGCTCGAA	-0.119
CGGACCCG	-0.375
CCAGATTC	-0.184
GTGTACGA	0.0319
ATTTACGA	0.235
ACGCGTAG	-0.182
CATATTAC	0.376
CGACTACG	-0.0383
CACGCCGA	-0.317

Block 4 — technique: protein-binding microarray; form: double-stranded DNA, one strand shown; sample: in vitro; tested at: 2200 nM top; setting: 60-bp whole probe; together with: salmon DNA 0.4 mg/ml; relative to: random background probes; reading: higher = stronger binding; all sequences stand within: GCCTAGCAC … GTCTTGATTCGCTTGACGCTGCTG
Target: Interferon regulatory factor 7, full length, phosphomimetic (IRF7, Homo sapiens, UniProt Q92985, residues 1-503, S471D/S472D/S475D/S476D/S477D/S483D/S484D/S487D)
Chain of UniProt Q92985 (whole entry, unmodified, looked up): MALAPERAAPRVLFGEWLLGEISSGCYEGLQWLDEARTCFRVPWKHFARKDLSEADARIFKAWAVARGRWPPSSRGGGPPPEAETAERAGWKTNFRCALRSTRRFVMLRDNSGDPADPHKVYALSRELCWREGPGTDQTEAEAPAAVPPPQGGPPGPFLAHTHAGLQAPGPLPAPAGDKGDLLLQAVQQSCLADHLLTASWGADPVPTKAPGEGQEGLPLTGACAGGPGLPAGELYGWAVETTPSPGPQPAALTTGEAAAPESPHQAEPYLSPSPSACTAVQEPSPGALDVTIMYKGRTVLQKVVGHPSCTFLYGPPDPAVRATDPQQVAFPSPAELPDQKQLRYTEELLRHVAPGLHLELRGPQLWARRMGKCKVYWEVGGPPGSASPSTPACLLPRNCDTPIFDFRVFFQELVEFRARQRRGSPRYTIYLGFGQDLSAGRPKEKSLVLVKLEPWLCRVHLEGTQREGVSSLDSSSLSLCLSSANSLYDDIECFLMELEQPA
Strand	fitted relative affinity [z-score]
TTAGATTCCCGTTTCGATTAGTGCTAG	4.29
TCCATGACCTACCCTGCGTTGTGCTAG	0.63
TTAAGTATCGGGTTTCGGTTAGTGCTA	4.24
TTAGGTCTTCTTCTCCTTTAGTGCTAG	1.02
TTAGGTTCTGGTTTCGGTTAGTGCTAG	6.98
AGCTCTTTCGTTACTTCCTCGTGCTAG	3.63
TTAGGACTGCTTCTCCCTTAGTGCTAG	0.827
GACGTACTGCTTATCCTGACGTGCTAG	1.06
TTAGGAATCCTACTGCTTTAGTGCTAG	0.16
TTTGATTTCAGTTCCGATTAGTGCTAG	2.66
TTAGATTTCGGGTTTCGACTAGTGCTA	4.96
TTAGGTATTGGTCTCGGTTAGTGCTAG	0.872
ACATTTTTTTCATTATTGTTGTGCTAG	1.87
GACGGTATCGGGTTTCAGGACGTGCTA	0.529
TCACCTCTTTCTCTGCTACTGTGCTAG	2.57
GTAGATATCAGTCTCGATTAGTGCTAG	0.336
GGCGGACTGGGGTTTCGGGACGTGCTA	-0.313
GACGAAGTGGGGTATCGAGACGTGCTA	0.0451

Block 5 — technique: protein binding microarray; form: double-stranded DNA, one strand shown; sample: in vitro; tested at: not given; relative to: not given; reading: higher = stronger binding
Target: Histone acetyltransferase KAT6A, both winged helices, GST fusion (KAT6A, Homo sapiens, UniProt Q92794, residues 1-181)
Setting: 8-mer, flanks averaged, mean of 2 arrays, mostly near background
Residues (chain): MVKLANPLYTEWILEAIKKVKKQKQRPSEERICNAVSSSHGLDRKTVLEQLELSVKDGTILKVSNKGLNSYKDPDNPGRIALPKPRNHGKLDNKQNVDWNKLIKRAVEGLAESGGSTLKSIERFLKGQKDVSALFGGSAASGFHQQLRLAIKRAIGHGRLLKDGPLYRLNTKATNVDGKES
Strand	E-score
ATTGCGGA	0.102
CGGCGTCA	0.259
AAAGCTGT	-0.0208
AGACCGCA	0.14
AACGCCGG	0.245
AGAAGAAG	-0.128
ATAGCCAA	-0.139
GAGACTTA	-0.168
TACCTGGA	-0.0672
GCGACCCA	0.0327
GCTAGCCC	-0.123
ACGCAGTG	0.205
GCCCTTCA	-0.0906
AAGGGAAG	-0.146
CCTTATAA	-0.0027
CCCTTCGG	-0.0302
AGATATGG	-0.151
CCGAAGCC	0.0912
CTTCTGTC	-0.00308
AAGGGAAC	-0.092
AAAGACTA	-0.0752
CCCCAGGC	-0.191
CTTGGTAA	-0.178
GCAGTCAA	-0.0742
CCATTTAG	-0.153
